Assay results gathered from unrelated publications.
Parts stem from different laboratories: compare values within a part only. Substitutions count along the parent as printed.

Series 1
Target: CCND2, cyclin fold, Cln2 fusion (human)
Method: yeast growth competition, sequencing
Sample: yeast
Notes: weak parent motif
Relative to: not given
Reading: higher = stronger binding
Starting sequence: ORC1 docking peptide (human); PRARKRLELGNLG; partner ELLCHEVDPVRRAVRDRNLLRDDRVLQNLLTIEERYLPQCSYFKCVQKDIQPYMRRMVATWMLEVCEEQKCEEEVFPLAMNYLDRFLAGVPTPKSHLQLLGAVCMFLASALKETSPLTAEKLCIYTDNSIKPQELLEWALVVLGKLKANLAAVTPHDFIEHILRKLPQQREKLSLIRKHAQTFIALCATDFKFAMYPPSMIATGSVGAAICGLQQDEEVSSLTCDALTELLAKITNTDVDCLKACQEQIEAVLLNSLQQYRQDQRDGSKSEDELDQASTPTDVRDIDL
Change | normalised enrichment score
E8L | 0.0803
K5A L7A | 0.197
R6D | 0.394
R2C | -0.194
P1G | -0.194
G10Q | -0.0224
A3R | -0.00777
R4H | 0.453
E8S | -0.17
R4N | 0.301
R4Y | -0.00818
L7R | 0.505
L12Y | -0.15
G13V | -0.00823
N11V | 0.661
L9Y | 0.44
R4I | 0.101
G10Y | 1.28
L12Q | -0.0536
G10M | 0.727
P1I | 0.0678
P1A | 0.328
G10K | -0.0521
A3L | -0.194
L9M | 0.29

Series 2
Target: UBE2G1 UBC core domain (UniProt P62253)
Method: yeast two-hybrid
Sample: yeast
Notes: mostly zero background
Relative to: not given
Reading: higher = stronger interaction
B1: MKRN3 RING domain (UniProt Q13064); chain FAVQRGMDKVCGICMEVVYEKANPNDRRFGILSNCNHSFCIRCIRRWRSARQFENRIVKSCPQCRVTSELVIPSE
B2: RNF6 RING domain (UniProt Q9Y252); chain NSIDSELGKICSVCISDYVTGNKLRQLPCMHEFHIHCIDRWLSENCTCPICRQPVLGSNIAN
B3: MARCHF1 RING domain (UniProt Q8TCQ1); chain TAPRSQSRLSVCPSTQDICRICHCEGDEESPLITPCRCTGTLRFVHQSCLHQWIKSSDTRCCELCKYDFIMETKLKPLRKWE
B4: TRIM41 RING domain (UniProt Q8WV44); chain PVQTLQEEAVCAICLDYFTDPVSIGCGHNFCRVCVTQLWGGEDEEDRDELDREEEEEDGEEE
B5: RUFY1 RING domain (UniProt Q96T51); chain QALKGHAWLKDDEATHCRQCEKEFSISRRKHHCRNCGHIFCNTCSSNELALPSYPKPVRVCDSCHTLLLQRCSSTAS
B6: NFX1 RING domain (UniProt Q12986); chain IEQLTTEKYECMVCCELVRVTAPVWSCQSCYHVFHLNCIKKWARSPASQADGQSGWRCPACQNVSAHVPNTY
B7: RNF186 RING domain (UniProt Q9NXI6); chain HSGSTECDLECLVCREPYSCPRLPKLLACQHAFCAICLKLLLCVQDNTWSITCPLCRKVTAVPGGLI
B8: VPS8 RING domain (UniProt Q8N3P4); chain TRGLNPKQDYCSICLQQYKRRQEMADEIIVFSCGHLYHSFCLQNKECTVEFEGQTRWTCYKCSSSNKVGKLSE
B9: HLTF RING domain (UniProt Q14527); chain LILSSGSDEECAICLDSLTVPVITHCAHVFCKPCICQVIQNEQPHAKCPLCRNDIHEDNLLE
Target sequence (chain): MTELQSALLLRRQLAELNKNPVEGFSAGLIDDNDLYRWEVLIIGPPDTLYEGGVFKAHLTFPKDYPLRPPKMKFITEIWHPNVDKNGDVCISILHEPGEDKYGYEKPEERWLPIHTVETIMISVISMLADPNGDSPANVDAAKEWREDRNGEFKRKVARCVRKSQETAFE
Sequence | lacZ reporter activity
B1 (MKRN3 RING domain) | 0
B2 (RNF6 RING domain) | 0
B3 (MARCHF1 RING domain) | 0
EIKEYKARLTCPCCNTRKKDAVLTKCFHVFCFECVRGRYEARQRKCPKCNAAFGAHDFHR (RNF40 RING domain (UniProt O75150)) | 0
B4 (TRIM41 RING domain) | 0
B5 (RUFY1 RING domain) | 0
B6 (NFX1 RING domain) | 0
B7 (RNF186 RING domain) | 0
LEALSSDFLACKICLEQLRAPKTLPCLHTYCQDCLAQLADGGRVRCPECRETVPVPPEGV (TRIM56 RING domain (UniProt Q9BRZ2)) | 0
B8 (VPS8 RING domain) | 0
ASEEEFQFLRCQQCQAEAKCPKLLPCLHTLCSGCLEASGMQCPICQAPWPLGADTP (PML RING domain (UniProt P29590)) | 0
B9 (HLTF RING domain) | 0
LVKDFNPYITCYICKGYLIKPTTVTECLHTFCKTCIVQHFEDSNDCPRCGNQVHETNPLE (PCGF5 RING domain (UniProt Q86SE9)) | 0

Series 3
Target: Histone acetyltransferase KAT6A, winged helix 1, GST fusion (KAT6A, Homo sapiens, UniProt Q92794, residues 1-85)
Method: protein binding microarray
Molecule type: double-stranded DNA, one strand shown
Sample: in vitro
Concentration: not given
Notes: 8-mer, flanks averaged, mean of 2 arrays, mostly near background
Relative to: not given
Reading: higher = stronger binding
Construct (chain): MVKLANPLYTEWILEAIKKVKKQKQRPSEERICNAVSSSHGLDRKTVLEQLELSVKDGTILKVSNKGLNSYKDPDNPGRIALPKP
Strand | E-score
TACAGCAA | -0.0692
AAAGAGTC | -0.0247
AGCTTAAT | -0.152
CGGAGTAG | 0.236
CACCTCGA | -0.106
CAGGCAAA | -0.187
AATGGTAG | -0.185
AGACCACT | -0.261
ACTTAGAG | -0.184
TAGCAACA | -0.152
AACGCCCG | 0.312
ATAAGCAG | -0.178
AAAGACCA | -0.146
ATGGCGAG | -0.162
CTGGCTAA | -0.105
CGTGGGAC | 0.0786
ACCTGACC | -0.0571
AGGGGCTA | -0.125
AATCCCTG | -0.2
AGGAAGGC | -0.241
ACAACTTC | -0.248
ATGGTCGC | 0.169
GGGAATAA | 0.0637
ATAACTAA | -0.16
CCTCCAAC | -0.218

Series 4
Target: ABI1, truncated, D143A, DHFR fusion (Arabidopsis thaliana)
Method: DHFR PCA, deep sequencing
Sample: yeast
Notes: methotrexate growth selection, single substitutions
Added: (+)-ABA 17 µM
Relative to: wild-type fitted maximum
Reading: higher = stronger binding
Starting sequence: PYL1, truncated, DHFR fusion (Arabidopsis thaliana); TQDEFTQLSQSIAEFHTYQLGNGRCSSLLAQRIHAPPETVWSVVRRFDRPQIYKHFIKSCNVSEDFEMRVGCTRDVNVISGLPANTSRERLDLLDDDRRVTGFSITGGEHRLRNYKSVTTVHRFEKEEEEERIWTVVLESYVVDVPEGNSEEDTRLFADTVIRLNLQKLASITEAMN; partner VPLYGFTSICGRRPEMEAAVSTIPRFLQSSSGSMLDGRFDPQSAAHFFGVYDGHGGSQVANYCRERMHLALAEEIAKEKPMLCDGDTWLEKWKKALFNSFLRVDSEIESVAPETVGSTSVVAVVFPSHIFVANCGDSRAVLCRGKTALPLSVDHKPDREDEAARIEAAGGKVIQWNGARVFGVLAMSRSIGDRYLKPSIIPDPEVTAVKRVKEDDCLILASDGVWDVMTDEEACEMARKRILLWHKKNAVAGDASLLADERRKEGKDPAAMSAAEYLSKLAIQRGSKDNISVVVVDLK
Change | relative binding score
N165T | -3.75%
T173C | 95.1%
R98W | -13.3%
M176D | 83.9%
V44S | 1.61%
S140I | -9.98%
I79Y | 81.6%
I12E | -3.59%
R49D | 39.3%
V136R | -0.736%
G81Y | -11.9%
S171Y | 77.5%
D65Q | 80.8%
V70P | 85.6%
T39L | 87.3%
V137G | -1.21%

Some of these lines once more (series 3):
Strand | E-score
ACTTAGAG | -0.184
TAGCAACA | -0.152
AACGCCCG | 0.312
ATAAGCAG | -0.178
AAAGACCA | -0.146
ATGGCGAG | -0.162
CTGGCTAA | -0.105
